Experimental data of several laboratories.
Parts stem from different laboratories: compare values within a part only. Changes are numbered by the printed parent chain.
UniProt O14730, sequence (whole entry, looked up): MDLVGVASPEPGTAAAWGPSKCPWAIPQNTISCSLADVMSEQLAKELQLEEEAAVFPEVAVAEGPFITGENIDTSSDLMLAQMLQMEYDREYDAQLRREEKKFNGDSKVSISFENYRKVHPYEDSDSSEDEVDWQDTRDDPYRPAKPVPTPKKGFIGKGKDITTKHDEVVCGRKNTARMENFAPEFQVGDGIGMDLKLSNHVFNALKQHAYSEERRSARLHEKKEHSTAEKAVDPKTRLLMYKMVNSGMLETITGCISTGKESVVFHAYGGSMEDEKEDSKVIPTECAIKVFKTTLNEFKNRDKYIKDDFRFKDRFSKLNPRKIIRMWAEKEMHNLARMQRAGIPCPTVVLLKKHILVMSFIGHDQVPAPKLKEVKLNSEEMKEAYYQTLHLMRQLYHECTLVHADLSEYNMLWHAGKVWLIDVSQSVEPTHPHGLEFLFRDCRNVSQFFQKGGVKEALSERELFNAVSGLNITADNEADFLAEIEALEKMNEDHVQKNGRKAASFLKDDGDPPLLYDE

Study 1
Target: FOSL1, bZIP domain (human)
Method: DHFR protein complementation
Sample: yeast
Setting: single substitutions, most at no-binding floor
Baseline: wild-type JUN-FOS pair
Reading: higher = stronger binding
Starting sequence: JUN, bZIP domain (human); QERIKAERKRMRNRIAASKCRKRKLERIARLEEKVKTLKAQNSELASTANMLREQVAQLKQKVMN; partner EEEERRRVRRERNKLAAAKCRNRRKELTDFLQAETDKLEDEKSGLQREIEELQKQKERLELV
Change	binding fitness [natural log]
V56A	-1.39
K39Y	-1.11
L52Y	-1.34
A40V	-0.481
L59W	-1.34
S47Q	-0.309
I28P	-1.06
K34A	-0.508

Study 2
Substance: H2AC11 (Homo sapiens, UniProt P0C0S8)
Method: cross-linking MS
Setting: hits only
partner	interaction screen
H2AC20 (Homo sapiens, UniProt Q16777)	cross-linked
H2BC3 (Homo sapiens, UniProt P33778)	cross-linked
H2BC21 (Homo sapiens, UniProt Q16778)	cross-linked
H2BC5 (Homo sapiens, UniProt P58876)	cross-linked
H2BC9 (Homo sapiens, UniProt Q93079)	cross-linked
H2BC26 (Homo sapiens, UniProt Q8N257)	cross-linked

Mixed results
SMILES	tested on	assay	setting	how to read	endpoint	value
CCS(=O)(=O)N(C)[C@H]1c2cc(C#N)ccc2OC(C)(C)[C@@H]1O (racemic)	mouse MPNST tumor cells	high-content immunofluorescence imaging, item: nuclear SOX9	10 µM, 12 h, mean of 2 replicates	baseline: DMSO control, higher = more nuclear SOX9	nuclear SOX9 intensity	119 % of DMSO
CO[C@H]1CC[C@H](CNc2ccc(S(=O)(=O)NC(=O)c3ccc(N4CCN(CC5=C(c6ccc(Cl)cc6)CC(C)(C)CC5)CC4)cc3Oc3cnc4[nH]ccc4c3)cc2[N+](=O)[O-])CC1	Serine/threonine-protein kinase RIO3 (RIOK3, Homo sapiens, UniProt O14730)	cell-free assay, competition with immobilised ligand	1 µM		remaining binding	100%

Some of these lines once more (study 1):
Change	binding fitness [natural log]
V56A	-1.39
